# Experimental data of several laboratories.
# Protocols differ between the studies behind these lines. “And” joins repeats or separate records; there may be more than shown. Numbers after ± are the reported error.
# CASP8: Caspase-8 (CASP8, Homo sapiens, UniProt Q14790)
# UniProt Q14790, sequence (whole entry, looked up): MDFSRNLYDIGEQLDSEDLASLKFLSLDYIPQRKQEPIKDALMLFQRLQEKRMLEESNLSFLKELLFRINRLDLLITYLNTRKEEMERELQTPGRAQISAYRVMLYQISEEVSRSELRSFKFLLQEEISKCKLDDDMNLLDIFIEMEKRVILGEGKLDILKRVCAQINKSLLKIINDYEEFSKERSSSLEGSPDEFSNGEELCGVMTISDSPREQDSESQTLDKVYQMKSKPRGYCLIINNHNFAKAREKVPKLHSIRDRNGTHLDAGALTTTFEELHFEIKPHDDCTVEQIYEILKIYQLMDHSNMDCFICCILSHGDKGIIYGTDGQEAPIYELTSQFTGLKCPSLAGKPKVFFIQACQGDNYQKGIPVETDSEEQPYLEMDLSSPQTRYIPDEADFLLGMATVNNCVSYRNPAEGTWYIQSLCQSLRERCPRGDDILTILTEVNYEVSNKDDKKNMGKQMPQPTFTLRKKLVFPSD
# HSD3B1: 3 beta-hydroxysteroid dehydrogenase/Delta 5-->4-isomerase type 1 (HSD3B1, Homo sapiens, UniProt P14060)
# UniProt P14060, sequence (whole entry, looked up): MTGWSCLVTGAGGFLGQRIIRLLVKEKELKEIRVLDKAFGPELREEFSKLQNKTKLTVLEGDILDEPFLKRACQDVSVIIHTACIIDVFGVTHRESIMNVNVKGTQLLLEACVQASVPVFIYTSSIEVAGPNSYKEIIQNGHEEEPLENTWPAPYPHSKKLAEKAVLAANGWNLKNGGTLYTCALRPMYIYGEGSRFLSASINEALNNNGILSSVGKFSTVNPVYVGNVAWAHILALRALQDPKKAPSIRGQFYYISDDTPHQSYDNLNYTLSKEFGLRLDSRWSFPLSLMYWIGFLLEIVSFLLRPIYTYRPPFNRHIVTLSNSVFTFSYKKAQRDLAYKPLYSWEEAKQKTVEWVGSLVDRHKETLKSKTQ
# CASP10: Caspase-10 (CASP10, Homo sapiens, UniProt Q92851)
# UniProt Q9Y4E8, sequence (whole entry, looked up): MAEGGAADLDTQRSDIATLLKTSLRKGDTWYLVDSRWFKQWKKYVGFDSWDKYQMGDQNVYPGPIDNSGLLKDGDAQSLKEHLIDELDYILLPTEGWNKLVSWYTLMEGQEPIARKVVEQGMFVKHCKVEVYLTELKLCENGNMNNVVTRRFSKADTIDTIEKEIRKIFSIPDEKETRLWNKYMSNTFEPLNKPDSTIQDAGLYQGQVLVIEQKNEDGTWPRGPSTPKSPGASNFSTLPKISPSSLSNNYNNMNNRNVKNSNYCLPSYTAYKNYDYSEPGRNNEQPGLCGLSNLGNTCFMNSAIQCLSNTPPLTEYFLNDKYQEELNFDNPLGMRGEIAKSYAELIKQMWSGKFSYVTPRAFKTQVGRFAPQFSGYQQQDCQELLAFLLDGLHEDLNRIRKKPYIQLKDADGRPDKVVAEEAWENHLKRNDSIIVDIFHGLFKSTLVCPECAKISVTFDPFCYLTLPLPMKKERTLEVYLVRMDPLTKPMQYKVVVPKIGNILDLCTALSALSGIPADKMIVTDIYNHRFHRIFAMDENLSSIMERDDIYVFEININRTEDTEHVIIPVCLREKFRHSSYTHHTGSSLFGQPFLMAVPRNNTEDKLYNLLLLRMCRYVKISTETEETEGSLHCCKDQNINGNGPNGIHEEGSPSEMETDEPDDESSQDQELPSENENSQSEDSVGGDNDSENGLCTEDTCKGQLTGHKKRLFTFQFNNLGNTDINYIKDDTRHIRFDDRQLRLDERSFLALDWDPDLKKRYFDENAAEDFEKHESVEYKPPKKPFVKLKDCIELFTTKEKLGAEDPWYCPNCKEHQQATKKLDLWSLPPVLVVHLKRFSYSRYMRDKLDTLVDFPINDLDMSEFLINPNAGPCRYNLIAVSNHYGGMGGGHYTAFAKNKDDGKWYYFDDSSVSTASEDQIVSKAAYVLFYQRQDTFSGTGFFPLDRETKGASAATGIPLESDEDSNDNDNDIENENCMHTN
# UniProt P46089, sequence (whole entry, looked up): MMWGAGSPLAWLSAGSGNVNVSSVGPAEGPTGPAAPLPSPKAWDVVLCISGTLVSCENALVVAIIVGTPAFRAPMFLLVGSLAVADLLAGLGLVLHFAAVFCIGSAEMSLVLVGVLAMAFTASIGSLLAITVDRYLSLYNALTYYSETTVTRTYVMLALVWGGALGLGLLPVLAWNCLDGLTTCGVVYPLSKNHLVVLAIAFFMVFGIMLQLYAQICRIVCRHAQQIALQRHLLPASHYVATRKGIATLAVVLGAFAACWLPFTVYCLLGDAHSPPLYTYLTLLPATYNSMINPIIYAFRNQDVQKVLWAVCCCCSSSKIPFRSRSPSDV
# UniProt Q92851, sequence (whole entry, looked up): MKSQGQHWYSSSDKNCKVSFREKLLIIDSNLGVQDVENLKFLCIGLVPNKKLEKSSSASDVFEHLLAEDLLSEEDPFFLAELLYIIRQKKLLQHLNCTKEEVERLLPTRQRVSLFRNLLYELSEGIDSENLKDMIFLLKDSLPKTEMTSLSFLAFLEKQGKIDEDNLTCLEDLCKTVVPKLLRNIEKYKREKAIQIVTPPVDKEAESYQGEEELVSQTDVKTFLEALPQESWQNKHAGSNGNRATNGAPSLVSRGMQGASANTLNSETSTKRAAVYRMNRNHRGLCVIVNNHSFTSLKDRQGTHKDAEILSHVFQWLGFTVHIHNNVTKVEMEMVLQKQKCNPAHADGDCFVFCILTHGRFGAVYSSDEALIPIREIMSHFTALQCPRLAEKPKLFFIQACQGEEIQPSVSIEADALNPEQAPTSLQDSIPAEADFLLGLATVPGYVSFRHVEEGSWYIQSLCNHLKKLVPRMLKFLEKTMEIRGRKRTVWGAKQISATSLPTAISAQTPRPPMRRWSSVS
# UniProt Q96C86, sequence (whole entry, looked up): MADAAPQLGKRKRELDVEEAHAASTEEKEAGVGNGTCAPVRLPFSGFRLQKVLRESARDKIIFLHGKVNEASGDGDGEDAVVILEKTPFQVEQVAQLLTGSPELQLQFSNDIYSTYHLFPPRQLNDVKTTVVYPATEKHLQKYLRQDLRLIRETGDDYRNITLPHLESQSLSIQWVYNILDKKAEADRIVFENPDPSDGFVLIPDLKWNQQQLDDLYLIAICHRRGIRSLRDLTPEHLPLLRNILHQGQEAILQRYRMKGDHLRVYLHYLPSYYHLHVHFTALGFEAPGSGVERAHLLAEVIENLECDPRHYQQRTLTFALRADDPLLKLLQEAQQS
# UniProt Q03431, sequence (whole entry, looked up): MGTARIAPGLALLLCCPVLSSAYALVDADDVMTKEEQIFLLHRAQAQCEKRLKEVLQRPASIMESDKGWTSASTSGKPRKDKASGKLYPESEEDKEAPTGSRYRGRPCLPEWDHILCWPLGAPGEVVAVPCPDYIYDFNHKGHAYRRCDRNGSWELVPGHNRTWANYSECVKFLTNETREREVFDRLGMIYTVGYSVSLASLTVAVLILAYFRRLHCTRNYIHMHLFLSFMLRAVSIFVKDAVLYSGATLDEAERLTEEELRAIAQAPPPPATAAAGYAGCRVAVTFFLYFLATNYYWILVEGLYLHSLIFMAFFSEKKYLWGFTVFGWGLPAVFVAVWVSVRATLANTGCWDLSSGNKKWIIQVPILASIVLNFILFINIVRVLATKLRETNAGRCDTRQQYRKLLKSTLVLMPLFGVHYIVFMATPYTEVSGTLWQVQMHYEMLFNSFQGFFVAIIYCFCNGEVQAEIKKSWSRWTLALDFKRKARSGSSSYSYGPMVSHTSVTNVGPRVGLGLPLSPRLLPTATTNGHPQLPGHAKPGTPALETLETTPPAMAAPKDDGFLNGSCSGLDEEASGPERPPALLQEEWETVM
# UniProt Q704Y3, sequence (whole entry, unmodified, looked up): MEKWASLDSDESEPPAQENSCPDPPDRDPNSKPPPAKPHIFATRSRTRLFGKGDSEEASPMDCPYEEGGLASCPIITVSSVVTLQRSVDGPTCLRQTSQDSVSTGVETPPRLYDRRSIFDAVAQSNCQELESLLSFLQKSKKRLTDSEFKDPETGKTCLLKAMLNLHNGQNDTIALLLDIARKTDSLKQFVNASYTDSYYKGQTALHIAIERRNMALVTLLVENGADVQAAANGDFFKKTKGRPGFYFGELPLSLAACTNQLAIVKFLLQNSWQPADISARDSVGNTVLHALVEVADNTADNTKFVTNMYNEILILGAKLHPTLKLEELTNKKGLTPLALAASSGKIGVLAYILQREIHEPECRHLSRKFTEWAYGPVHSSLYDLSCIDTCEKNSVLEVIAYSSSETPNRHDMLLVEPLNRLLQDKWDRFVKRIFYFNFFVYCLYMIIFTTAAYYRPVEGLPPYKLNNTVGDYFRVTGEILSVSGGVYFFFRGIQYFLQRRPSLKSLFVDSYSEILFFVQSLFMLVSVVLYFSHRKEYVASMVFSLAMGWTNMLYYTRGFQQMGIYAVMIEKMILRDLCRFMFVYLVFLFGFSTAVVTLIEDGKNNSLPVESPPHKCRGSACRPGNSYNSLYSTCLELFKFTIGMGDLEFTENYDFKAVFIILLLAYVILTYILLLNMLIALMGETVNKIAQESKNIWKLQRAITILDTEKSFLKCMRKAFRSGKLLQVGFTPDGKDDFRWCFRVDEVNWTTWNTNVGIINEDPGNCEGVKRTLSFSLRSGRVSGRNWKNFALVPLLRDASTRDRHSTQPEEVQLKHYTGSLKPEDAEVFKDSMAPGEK
# UniProt P15170, sequence (whole entry, looked up): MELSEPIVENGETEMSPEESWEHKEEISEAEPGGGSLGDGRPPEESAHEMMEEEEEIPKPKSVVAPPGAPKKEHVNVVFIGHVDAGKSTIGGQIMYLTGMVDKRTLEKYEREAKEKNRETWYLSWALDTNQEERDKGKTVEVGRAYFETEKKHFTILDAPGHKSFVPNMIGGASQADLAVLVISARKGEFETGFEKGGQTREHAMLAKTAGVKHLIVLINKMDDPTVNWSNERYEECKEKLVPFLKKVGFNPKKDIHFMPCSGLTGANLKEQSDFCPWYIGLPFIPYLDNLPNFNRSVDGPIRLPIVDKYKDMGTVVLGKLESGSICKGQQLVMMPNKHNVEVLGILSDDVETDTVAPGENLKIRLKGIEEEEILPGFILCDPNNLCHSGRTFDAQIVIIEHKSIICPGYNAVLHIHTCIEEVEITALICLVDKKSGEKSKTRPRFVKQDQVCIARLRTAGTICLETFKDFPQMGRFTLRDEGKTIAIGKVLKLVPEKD
Compound,target,test,system,setting,how to read,quantity,value
CC(=O)N1CCC[C@H]1C(=O)N[C@H](C(=O)NCC(=O)N[C@@H](CC(=O)O)C(=O)COC(=O)c1c(C)cccc1C)C(C)(C)C,CASP8,"enzyme activity, inhibitor",,,,kinact/KI,310000 M⁻¹ s⁻¹
C[n+]1cn([C@@H]2O[C@H](COP(=O)([O-])OP(=O)(O)CP(=O)(O)OP(=O)(O)OC[C@H]3O[C@@H](n4cnc5c(=O)[nH]c(N)nc54)[C@H](O)[C@@H]3O)[C@@H](O)[C@H]2O)c2nc(N)nc(O)c21,"DCPS (Homo sapiens, UniProt Q96C86)","substrate, HPLC",,"0.04 mM, 1 h, 37 °C",,hydrolysis,0%
N#CN1CC[C@H](C(=O)Nc2nc3c(s2)CN(C(=O)Cn2cc(CNC(=O)CCCC[C@@H]4SC[C@@H]5NC(=O)N[C@@H]54)nn2)CC3)C1,"USP15 (Homo sapiens, UniProt Q9Y4E8)","probe binding, affinity probe, neutravidin pull-down LC-MS/MS","HEK293T, cell lysate","5 µM, 1 h, single replicate, unit not given",higher = more pulled down,iBAQ abundance,5.9e+06 and 1.53e+06 and 3.51e+06
COC(=O)[C@@]1(C)C=C(C(=O)Nc2cccc(C(=O)Nc3ccc(Nc4nccc(-c5cccnc5)n4)c(C)c3)c2)C(=O)CC1,"Mitogen-activated protein kinase 8, docking groove (MAPK8, Homo sapiens, UniProt P45983)","peptide binding, inhibitor, fluorescence polarization",,"3.125 µM, added: JIP1 peptide probe",,normalized fluorescence polarization,0.925
Cc1ccccc1-c1coc2cc(O)ccc2c1=O,HSD3B1,[3H]-DHEA conversion,LNCaP,"0.1 µM, normalized to protein, unit not given",baseline: vehicle,DHEA metabolism,0
CC[C@H](C)[C@H](NC(=O)[C@H](CCC(=O)O)NC(=O)[C@H](Cc1ccc(I)cc1)NC(C)=O)C(=O)N[C@@H](CC(=O)O)C(=O)COC(=O)c1c(C)cccc1C,CASP10,"enzyme activity, inhibitor",,,,kinact/KI,235000 M⁻¹ s⁻¹
N=C(N)NCCC[C@H](NC(=O)[C@@H]1CCCN1C(=O)[C@H](CCCNC(=N)N)NC(=O)[C@@H]1CCCN1C(=O)[C@H](CCCNC(=N)N)NC(=O)[C@@H]1CCCN1C(=O)[C@H](CCCNC(=N)N)NC(=O)[C@@H]1CCCN1C(=O)[C@H](CCCNC(=N)N)NC(=O)[C@@H]1CCCN1C(=O)[C@H](CCCNC(=N)N)NC(=O)[C@@H]1CCCN1C(=O)[C@H](CCCNC(=N)N)NC(=O)[C@@H]1CCCN1C(=O)[C@H](CCCNC(=N)N)NC(=O)[C@@H]1CCCN1C(=O)[C@H](CCCNC(=N)N)NC(=O)[C@@H]1CCCN1C(=O)[C@H](CCCNC(=N)N)NC(=O)[C@@H]1CCCN1C(=O)[C@H](CCCNC(=N)N)NC(=O)[C@@H]1CCCN1C(=O)[C@H](CCCNC(=N)N)NC(=O)[C@@H]1CCCN1C(=O)[C@H](CCCNC(=N)N)NC(=O)[C@@H]1CCCN1C(=O)[C@H](CCCNC(=N)N)NC(=O)[C@@H]1CCCN1C(=O)[C@H](CCCNC(=N)N)NC(=O)[C@@H]1CCCN1C(=O)[C@H](CCCNC(=N)N)NC(=O)[C@@H]1CCCN1C(=O)[C@H](CCCNC(=N)N)NC(=O)[C@@H]1CCCN1C(=O)[C@H](CCCNC(=N)N)NC(=O)[C@@H]1CCCN1C(=O)[C@H](CCCNC(=N)N)NC(=O)[C@@H]1CCCN1C(=O)[C@H](CCCNC(=N)N)NC(=O)[C@@H]1CCCN1C(=O)[C@H](CCCNC(=N)N)NC(=O)[C@@H]1CCCN1C(=O)[C@H](CCCNC(=N)N)NC(=O)[C@@H]1CCCN1C(=O)[C@H](CCCNC(=N)N)NC(=O)[C@@H]1CCCN1C(=O)[C@H](Cc1ccc(O)cc1)NC(=O)[C@H](CO)NC(=O)CN)C(=O)O,"Nucleophosmin (NPM1, Homo sapiens, UniProt P06748)",SANS,,"3 molar excess over NPM1, 25 °C",,maximum particle dimension,318 Å
CCCCCC(O)/C=C/C=O (stereo not shown),"F-box only protein 30 (FBXO30, Homo sapiens, UniProt Q8TB52)",competitive isoTOP-ABPP,Ramos soluble proteome,"100 µM, 60 min, added: iodoacetamide probe","baseline: DMSO over compound-treated, higher = stronger cysteine blockade",isoTOP-ABPP competition ratio,1.5
C=CC(=O)N1CCCC(n2c(=O)c3ncccc3n(Cc3ccc(Oc4ccccc4)cc3)c2=O)C1 (stereo not shown),"GSPT1 (Homo sapiens, UniProt P15170)",thermal proteome profiling,,"10 µM, destabilized proteins, unit not given",baseline: vehicle,melting temperature shift,-3.52
Cc1cc(C)cc(COc2cc3c(cc2OCc2cc(C)cc(C)c2)C2CC(O)(Cc4cn(CCOCCOCCNC(=O)CCCCC5SCC6NC(=O)NC65)nn4)CC(C)N2CC3)c1 (stereo not shown),"eIF5-mimic protein 2 (Homo sapiens, UniProt Q7L1Q6)","biotinylated probe pull-down, item: BZW1",,10 µM probe,baseline: heavy over light,SILAC ratio,2.92
CC(=O)N[C@@H](CO)C(=O)N[C@H](C(=O)N1CCC[C@H]1C(=O)N[C@@H](CC(=O)O)C(=O)COC(=O)c1c(C)cccc1C)C(C)(C)C,CASP10,"enzyme activity, inhibitor",,,,kinact/KI,137000 M⁻¹ s⁻¹
C=C1C(=O)C2(C(=O)N3CCN(c4ccc(Br)cc4)CC3)CC(=O)CC1C2 (racemic),"PTPN11 (Homo sapiens, UniProt Q06124)","enzyme activity, covalent inhibitor",,added: pNPP substrate,,kinact/KI,367 M⁻¹ s⁻¹
CC(=O)N[C@H](CCc1ccccc1)C(=O)N[C@@H](CCCC(=O)O)C(=O)N1C[C@H](O)C[C@H]1C(=O)N[C@@H](CC(=O)O)C(=O)COC(=O)c1c(C)cccc1C,CASP8,"enzyme activity, inhibitor",,,,kinact/KI,890000 M⁻¹ s⁻¹
CCCCCCCCCCCCCCCC(=O)NCCCC[C@H](NC(=O)[C@H](CCC(=O)O)NC(=O)[C@H](Cc1ccc(O)cc1)NC(=O)[C@H](CCC(=O)O)NC(=O)COCC(=O)NCCCOCCOCCOCCCNC(=O)[C@H](Cc1c[nH]c2ccccc12)NC(=O)[C@H](CCCCN)NC(=O)[C@H](C)NC(=O)[C@H](CCCCNC(=N)N)NC(=O)[C@H](CCC(N)=O)NC(=O)[C@H](Cc1c[nH]cn1)NC(=O)[C@H](CCSC)NC(=O)[C@H](CC(C)C)NC(=O)[C@H](CCC(N)=O)NC(=O)[C@@H](NC(=O)[C@H](CCC(=O)O)NC(=O)C(C)(C)NC(=O)[C@@H](NC(=O)C(C)(C)N)C(C)C)[C@@H](C)CC)C(=O)N[C@@H](CCC(=O)O)C(=O)N[C@@H](Cc1ccc(O)cc1)C(=O)N[C@@H](CCC(=O)O)C(N)=O,"PTH1R (Homo sapiens, UniProt Q03431)",agonist,Saos-2 with cAMP reporter,"1 pM, 30 min, ligand-on phase",higher = more cAMP,cAMP luminescence AUC,0.9 a.u.
CC(=O)N[C@@H](CC(=O)O)C(=O)N[C@@H](CO)C(=O)N[C@@H](C)C(=O)N[C@@H](CC(=O)O)C(=O)COC(=O)c1c(C)cccc1C,CASP8,"enzyme activity, inhibitor",,,,kinact/KI,84000 M⁻¹ s⁻¹
CNCCOc1cc(-c2coc3cc(O)ccc3c2=O)ccc1Cl,HSD3B1,[3H]-DHEA conversion,LNCaP,"0.1 µM, normalized to protein, unit not given",baseline: vehicle,DHEA metabolism,0.79
CC(C)Oc1cc(Cl)ccc1CNc1cc(-c2ccccc2)nc2ncnn12,"GPR3 (Homo sapiens, UniProt P46089)",cAMP reporter,human cells,3 µM,higher is more cAMP,cAMP luminescence,5870 a.u. and 8000 a.u. and 4580 a.u. and 1880 a.u. and 2880 a.u. and 3620 a.u. and 5230 a.u.
CCCCCCCC/C=C\CCCCCCCC(=O)NCCO,"Trpv1 (Mus musculus, UniProt Q704Y3, S511T)","ion current, agonist, whole-cell patch clamp",,S511T,,Hill coefficient,1.54 ± 0.44
COc1ccccc1-c1ccncc1C(=O)Nc1nnc(OCc2ccc(Cl)cc2)s1,"DNA polymerase theta, helicase domain (POLQ, Homo sapiens, UniProt O75417)","ATPase activity, ADP-Glo",,"0.004 µM, added: ATP 600 µM",,remaining activity,85%
CC[C@H](C)[C@H](NC(=O)[C@H](CCC(N)=O)NC(=O)[C@@H](NC(=O)[C@@H]1CCCN1[C@@H]1CN(C(=O)[C@H](CCCCN)NC(=O)[C@H](CC(N)=O)NC(=O)[C@@H](NC(=O)[C@@H](NC(=O)[C@H](CCC(N)=O)NC(=O)[C@@H](N)C(C)C)[C@@H](C)CC)[C@@H](C)CC)CC[C@H]1NS(=O)(=O)c1ccc(C)cc1)C(C)C)C(=O)N[C@H](C(=O)N[C@@H](Cc1ccc(O)cc1)C(=O)N[C@@H](CCCCN)C(N)=O)C(C)C,"Microtubule-associated protein tau, PHF6* peptide (MAPT, Homo sapiens, UniProt P10636)","fibril formation, ThT fluorescence",,"1-fold of peptide, pH 7.4, added: Ac-PHF6* 25 µM, heparin",baseline: untreated,ThT fluorescence,17 ± 4%
CC(=O)N[C@@H](Cc1c[nH]c2ccccc12)C(=O)N[C@@H](CCCNC(=N)N)C(=O)N[C@@H](CO)C(=O)N[C@@H](CC(=O)O)C(=O)COC(=O)c1c(C)cccc1C,CASP8,inhibitor,,recombinant enzyme,,kobs/[I],31000 M⁻¹ s⁻¹
CC[C@H](C)[C@H](NC(=O)[C@@H](NC(=O)[C@@H](NC(=O)[C@@H](NC(=O)[C@H](CCCCN)NC(=O)[C@H](CCC(=O)O)NC(=O)[C@H](C)N)C(C)C)C(C)C)C(C)C)C(=O)N[C@H](C(=O)N[C@@H](CCCCN)C(N)=O)[C@@H](C)O,"MAPT (Homo sapiens, UniProt P10636)","fibril formation, ThT fluorescence",,"1-fold of tau, at plateau, added: wild-type tau 10 µM, heparin",baseline: untreated,ThT fluorescence,86 ± 15%
N=C(N)NCCS(=O)(=O)O,"SLC6A6 (Homo sapiens, UniProt P31641, Y138A)","binding, microscale thermophoresis",,"62.5 µM, room temperature, added: 50 nM labelled protein",higher = more binding,normalised MST signal,-0.0934
O=C1c2sc(-c3ccc(N4CCC(F)C4)nc3F)nc2CCN1c1cccnc1 (stereo not shown),"TAR DNA-binding protein 43, aggregated (TARDBP, Homo sapiens, UniProt Q13148)",saturation autoradiography,"human, FTLD-TDP type A brain sections",2.87 nM,,specific binding,39.6 nM
CCCCCCCCCCCCC/C=C/C=O,"Gasdermin-D (GSDMD, Homo sapiens, UniProt P57764)","competitive isoTOP-ABPP, item: GSDMDC1 cysteine peptide",Ramos soluble proteome,"100 µM, added: iodoacetamide probe","baseline: DMSO over compound-treated, higher = stronger cysteine blockade",isoTOP-ABPP competition ratio,1
CC(=O)N[C@@H](Cc1c[nH]c2ccccc12)C(=O)N[C@@H](CCC(=O)O)C(=O)N[C@@H](Cc1c[nH]cn1)C(=O)N[C@@H](CC(=O)O)C(=O)COC(=O)c1c(C)cccc1C,CASP10,inhibitor,,recombinant enzyme,,kobs/[I],107000 M⁻¹ s⁻¹
Cc1cc(=O)oc2cc(NC(=O)CCCCCCCC(=O)NO)ccc12,"HDAC8 (Homo sapiens, UniProt Q9BY41)",ITC,Tris-HCl buffer,"concentration not given, 298 K",,binding stoichiometry,0.8
Cc1cn(CC(=O)N(CC(=O)N[C@H]2COC[C@@H]2N(CC(=O)NCCOCCOCC(N)=O)C(=O)Cn2cnc3c(N)ncnc32)[C@H]2COC[C@@H]2NC(=O)CN(C(=O)Cn2cnc3c(N)ncnc32)[C@H]2COC[C@@H]2NC(=O)CN(C(=O)Cn2cnc3c(=O)[nH]c(N)nc32)[C@H]2COC[C@@H]2NC(=O)CN(C(=O)Cn2cc(C)c(=O)[nH]c2=O)[C@H]2COC[C@@H]2NC(=O)CN(C(=O)Cn2cnc3c(=O)[nH]c(N)nc32)[C@H]2COC[C@@H]2NC(=O)CN(C(=O)Cn2cc(C)c(=O)[nH]c2=O)[C@H]2COC[C@@H]2NC(=O)CN(C(=O)Cn2cnc3c(N)ncnc32)[C@H]2COC[C@@H]2NC(=O)CN(C(=O)Cn2cnc3c(=O)[nH]c(N)nc32)[C@H]2COC[C@@H]2N)c(=O)[nH]c1=O,complementary DNA,"duplex formation, UV melting curve fit",PBS,1 µM,,ΔH,-75.2 ± 0.8 kcal/mol

# For quick reference, copied from above:
Compound,target,test,system,setting,how to read,quantity,value
CC(C)Oc1cc(Cl)ccc1CNc1cc(-c2ccccc2)nc2ncnn12,"GPR3 (Homo sapiens, UniProt P46089)",cAMP reporter,human cells,3 µM,higher is more cAMP,cAMP luminescence,5870 a.u. and 8000 a.u. and 4580 a.u. and 1880 a.u. and 2880 a.u. and 3620 a.u. and 5230 a.u.
C[n+]1cn([C@@H]2O[C@H](COP(=O)([O-])OP(=O)(O)CP(=O)(O)OP(=O)(O)OC[C@H]3O[C@@H](n4cnc5c(=O)[nH]c(N)nc54)[C@H](O)[C@@H]3O)[C@@H](O)[C@H]2O)c2nc(N)nc(O)c21,"DCPS (Homo sapiens, UniProt Q96C86)","substrate, HPLC",,"0.04 mM, 1 h, 37 °C",,hydrolysis,0%
